# Published values from different studies.
# “And” joins repeats or separate records; there may be more than shown.
# Cell line: MDA-MB-231
Structure (SMILES),assay,conditions,IC50
O=C1CS/C(=N\N=C\c2cccc3cc4ccccc4nc23)N1c1ccc([N+](=O)[O-])cc1,"cell growth or viability, MTT",48 h,> 50 µM
Clc1ccc(C(Cn2cncn2)OCc2ccc(Br)cc2)c(Cl)c1 (centres unmarked),"cell growth or viability, MTT",24 h,35.8 µM
CC[C@H](C)/C=C/C=C/C=C/C(O)=C/C(=O)C(F)(F)F,"cell growth, CellTiter-Glo",,28.4 µM
C[C@@H]1CC[C@@H]([C@](O)(CNCc2ccc(F)cc2)COCc2ccccc2)[C@H](OCc2ccccc2)C1,"cell growth or viability, MTT",72 h,15.4 µM
Clc1ccc(C(Cn2ccnc2)OCc2ccc(Br)cc2)c(Cl)c1 (centres unmarked),"cell growth or viability, MTT",24 h,49.6 µM
COc1cc(S(=O)(=O)Oc2ccc3[nH]c(C)cc3c2)cc(OC)c1OC,"cell growth or viability, fluorescence",5 days,0.0104 µM
O=C1C=CC2(Oc3cccc4cccc(c34)O2)c2ccccc21,"cell growth or viability, resazurin",72 h,3.1 µM
COc1ccc(C(=O)N2CCN(CC(OCc3ccc4ccccc4c3)c3ccc(Cl)cc3Cl)CC2)cc1 (centres unmarked),"cell growth or viability, MTT",24 h,40.6 µM
CCCN1C(=O)/C(=C/C(=O)OCC)S/C1=N\N=C\c1cccc2cc3ccccc3nc12,"cell growth or viability, MTT",48 h,> 50 µM
COc1c(C)c(OS(=O)(=O)c2ccccc2)c(C)c(OS(=O)(=O)c2ccccc2)c1C(=O)/C=C/c1ccccc1,"cell growth or viability, SRB",72 h,> 50 µM
CC[C@H](C)/C=C/C=C/C(O)=C/C(=O)C(F)(F)Cl,"cell growth, CellTiter-Glo",,241 µM and 242 µM
CCCc1cc2cc(-n3nc(C4CC4)c4c3CC(C)(C)CC4=O)cc(N3CCC(O)CC3)c2c(=O)[nH]1,"cell growth or viability, MTS",,7.13 µM
Clc1ccc(COC(Cn2cncn2)c2ccc(Cl)cc2Cl)cc1 (centres unmarked),"cell growth or viability, MTT",24 h,42.5 µM
COC1CC(=O)c2c(O)cccc2C12Oc1cccc3cccc(c13)O2 (centres unmarked),"cell growth or viability, resazurin",72 h,> 25 µM
CCCc1cc2cc(-n3nc(C4CC4(F)F)c4c3CC(C)(C)CC4=O)cc(N3CCC(O)CC3)c2c(=O)[nH]1 (racemic),"cell growth or viability, MTS",,0.798 µM
CC(=O)N[C@@H](CCCNC(=N)N)C(=O)N[C@@H](Cc1c[nH]c2ccccc12)C(=O)N[C@@H](CCCNC(=N)N)C(=O)N[C@@H](Cc1c[nH]c2ccccc12)C(=O)N[C@@H](CCCNC(=N)N)C(=O)N[C@@H](Cc1c[nH]c2ccccc12)C(N)=O,cell viability,"48 h, light irradiation 2.5 min",> 100 µM
Nc1ncc(-c2cc(-c3cnn(CC(F)(F)F)c3)ncc2F)nc1C(=O)NC1CNCC(F)C1 (centres unmarked),"cell growth or viability, ATP luminescence",72 h,2.32 µM
COc1ccc(COC[C@](O)(CNCc2ccc(F)cc2)[C@@H]2CC[C@@H](C)C[C@H]2OCc2ccc(OC)cc2)cc1,"cell growth or viability, MTT",72 h,3.18 µM
Cc1ccnc(-c2cc(C(=O)O)ccn2)c1.F[P-](F)(F)(F)(F)F.F[P-](F)(F)(F)(F)F.[Ru+2].c1ccc(-c2ccccn2)nc1.c1ccc(-c2ccccn2)nc1,cell viability,"48 h, light irradiation 2.5 min",> 100 µM
CCCc1cc2cc(-n3nc(N)c4c3CC(C)(C)CC4=O)cc(N3CCC(O)CC3)c2c(=O)[nH]1,"cell growth or viability, MTS",,> 50 µM
O=C1CS/C(=N\N=C\c2cccc3cc4ccccc4nc23)N1c1ccc(F)cc1,"cell growth or viability, MTT",48 h,> 50 µM
COc1ccc(CNC[C@@](O)(COCc2ccc(OC)cc2)[C@@H]2CC[C@@H](C)C[C@H]2OCc2ccc(OC)cc2)cc1,"cell growth or viability, MTT",72 h,2.84 µM
Cc1cnc(Nc2ccc3c(c2)CCN(C(=O)/C=C/C(=O)c2ccc(Cl)cc2)C3)nc1-c1cnn(C(C)C)c1,"cell growth or viability, MTT",48 h,0.09 µM
CCCN1C(=O)CS/C1=N\N=C\c1cccc2cc3ccccc3nc12,"cell growth or viability, MTT",48 h,> 50 µM
CCN1CCN(CC(=O)N2CCN(CC(OCc3ccc4ccccc4c3)c3ccc(Cl)cc3Cl)CC2)CC1 (centres unmarked),"cell growth or viability, MTT",24 h,37.6 µM
CCOC(=O)/C=C1\S/C(=N\N=C\c2cccc3cc4ccccc4nc23)N(c2ccc([N+](=O)[O-])cc2)C1=O,"cell growth or viability, MTT",48 h,> 50 µM
CCCc1cc2cc(-n3cc(C)c4c3CC(C)(C)CC4=O)cc(N3CCC(O)CC3)c2c(=O)[nH]1,"cell growth or viability, MTS",,7.28 µM
CNC(=S)NN=Cc1ccc([N+](=O)[O-])o1,"cell growth or viability, resazurin",,46.8 µM
Clc1ccc(C(Cn2ccnc2)OCc2ccc3ccccc3c2)c(Cl)c1 (centres unmarked),"cell growth or viability, MTT",24 h,39.8 µM
O=C1C(=NN=c2[nH]ccs2)c2cc(Cl)ccc2N1CCn1ncc2c(=O)[nH]cnc21,"cell growth or viability, SRB",72 h,1.72 µg/mL
COc1ccc(COC[C@](O)(CNCc2ccccc2)[C@@H]2CC[C@@H](C)C[C@H]2OCc2ccc(OC)cc2)cc1,"cell growth or viability, MTT",72 h,2.13 µM
Cc1sc2c(c1C)C(c1ccc(Cl)cc1)=N[C@@H](CC(=O)NCCN(C)CCCCNC(=O)CCCCOc1cccc3c1C(=O)N([C@H]1CCC(=O)NC1=O)C3=O)c1nnc(C)n1-2,"cell growth or viability, CCK-8",72 h,0.81 µM
CCCCN(CCCC)CC(=O)N1CCN(CC(OCc2ccc3ccccc3c2)c2ccc(Cl)cc2Cl)CC1 (centres unmarked),"cell growth or viability, MTT",24 h,32.9 µM
CCCCCCCCCCCC(=O)Oc1c(C)c(OC)c2c(c1C)OC(=O)[C@@H](CCCCCCCCCC)[C@]2(O)/C=C/c1ccccc1 (relative stereo),"cell growth or viability, SRB",72 h,> 50 µM
CCNC(=S)NN=Cc1ccc([N+](=O)[O-])o1,"cell growth or viability, resazurin",,73.9 µM
C[C@@H]1CC[C@@H]([C@](O)(CNCc2cccc(F)c2)COCc2ccccc2)[C@H](OCc2ccccc2)C1,"cell growth or viability, MTT",72 h,3.93 µM
CCCCCCCCCC(=O)Oc1c(C)c(OC)c2c(c1C)OC(=O)C(CCCCCCCC)C2(O)C=Cc1ccccc1 (centres unmarked),"cell growth or viability, SRB",72 h,> 50 µM
Cc1ccc([N+](=O)[O-])cc1S(=O)(=O)N(C)/N=C/c1cnc2ccc(Br)cn12,cell growth or viability,,0.466 µM
Clc1ccc(COC(Cn2cnc3ccccc32)c2ccc(Cl)cc2Cl)cc1 (centres unmarked),"cell growth or viability, MTT",24 h,> 50 µM
CC(=O)[O][Pd][c]1cc(C)ccc1N1N=C(C)C(C)(C)C1=O.CC(=O)[O][Pd][c]1cc(C)ccc1N1N=C(C)C(C)(C)C1=O,"cell growth or viability, MTT",,92.7 µM
CC[C@H](C)/C=C/C=C/C=C/C(O)=C/C(=O)C(F)(Cl)Cl,"cell growth, CellTiter-Glo",,11.8 µM and 18.5 µM and 27.4 µM
Cc1cc(-c2ccc(S(=O)(=O)C3CC(C(=O)NC4(C#N)CC4)N(C(=O)C4(C(F)(F)F)CC4)C3)c(C(F)(F)F)c2)ccn1 (centres unmarked),cell growth or viability,,> 100 µM
CC(C)=CC1OC(C)(C)C2C=C3C(=O)C(Cl)=CC(O)C3C3C(O)C4OC4C(=O)C132 (centres unmarked),"cell growth or viability, MTS",,8.37 µM
CCCc1cc2cc(-n3nc(C(F)F)c4c3CC(C)(C)CC4=O)cc(N3CCC(O)CC3)c2c(=O)[nH]1,"cell growth or viability, MTS",,5.12 µM
C[C@@H]1CC[C@@H]([C@](O)(CNCc2ccccc2F)COCc2ccccc2)[C@H](OCc2ccccc2)C1,"cell growth or viability, MTT",72 h,2.94 µM
CCCc1cc2cc(-n3nc(C)c4ncccc43)cc(N3CCC(O)CC3)c2c(=O)[nH]1,"cell growth or viability, MTS",,16 µM
C=CCOc1c(C)c(OC)c(C(=O)/C=C/c2ccccc2)c(OCC=C)c1C,"cell growth or viability, SRB",72 h,> 50 µM
